Published values pooled from the literature.
Every numbered part comes from another study and shows a few of its results, in no order.
Chain of UniProt Q13976 (whole entry, looked up): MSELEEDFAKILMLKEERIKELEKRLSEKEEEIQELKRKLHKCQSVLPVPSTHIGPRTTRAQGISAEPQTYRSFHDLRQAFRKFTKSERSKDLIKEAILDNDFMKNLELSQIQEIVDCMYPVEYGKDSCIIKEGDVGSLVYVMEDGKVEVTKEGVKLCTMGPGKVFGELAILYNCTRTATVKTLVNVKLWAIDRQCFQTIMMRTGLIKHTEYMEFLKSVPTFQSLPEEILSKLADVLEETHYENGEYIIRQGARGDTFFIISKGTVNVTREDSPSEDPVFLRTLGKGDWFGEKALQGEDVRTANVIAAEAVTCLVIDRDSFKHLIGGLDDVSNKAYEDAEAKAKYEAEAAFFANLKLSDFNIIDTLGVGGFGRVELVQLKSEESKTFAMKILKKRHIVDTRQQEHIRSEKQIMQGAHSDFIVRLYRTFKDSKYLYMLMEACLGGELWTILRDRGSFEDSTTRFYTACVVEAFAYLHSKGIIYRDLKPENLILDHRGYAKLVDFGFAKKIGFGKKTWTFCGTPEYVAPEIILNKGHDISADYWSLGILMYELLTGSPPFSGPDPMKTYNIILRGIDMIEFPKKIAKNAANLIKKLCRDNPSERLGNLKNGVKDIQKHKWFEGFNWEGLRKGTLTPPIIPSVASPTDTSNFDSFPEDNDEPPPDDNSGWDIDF
Chain of UniProt P49761 (whole entry, looked up): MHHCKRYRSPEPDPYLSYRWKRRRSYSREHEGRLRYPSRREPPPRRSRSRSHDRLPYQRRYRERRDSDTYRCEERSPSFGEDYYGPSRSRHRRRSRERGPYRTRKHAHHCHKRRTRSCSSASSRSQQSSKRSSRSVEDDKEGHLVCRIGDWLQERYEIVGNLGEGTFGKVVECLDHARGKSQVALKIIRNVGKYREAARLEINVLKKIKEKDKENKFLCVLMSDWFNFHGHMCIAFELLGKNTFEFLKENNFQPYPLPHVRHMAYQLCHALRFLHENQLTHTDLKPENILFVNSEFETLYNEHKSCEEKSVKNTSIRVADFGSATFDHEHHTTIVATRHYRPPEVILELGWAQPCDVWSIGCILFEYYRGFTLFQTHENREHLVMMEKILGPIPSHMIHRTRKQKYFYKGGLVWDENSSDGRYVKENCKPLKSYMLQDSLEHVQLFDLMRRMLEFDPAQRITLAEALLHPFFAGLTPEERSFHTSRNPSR
Chain of UniProt O94921 (whole entry, looked up): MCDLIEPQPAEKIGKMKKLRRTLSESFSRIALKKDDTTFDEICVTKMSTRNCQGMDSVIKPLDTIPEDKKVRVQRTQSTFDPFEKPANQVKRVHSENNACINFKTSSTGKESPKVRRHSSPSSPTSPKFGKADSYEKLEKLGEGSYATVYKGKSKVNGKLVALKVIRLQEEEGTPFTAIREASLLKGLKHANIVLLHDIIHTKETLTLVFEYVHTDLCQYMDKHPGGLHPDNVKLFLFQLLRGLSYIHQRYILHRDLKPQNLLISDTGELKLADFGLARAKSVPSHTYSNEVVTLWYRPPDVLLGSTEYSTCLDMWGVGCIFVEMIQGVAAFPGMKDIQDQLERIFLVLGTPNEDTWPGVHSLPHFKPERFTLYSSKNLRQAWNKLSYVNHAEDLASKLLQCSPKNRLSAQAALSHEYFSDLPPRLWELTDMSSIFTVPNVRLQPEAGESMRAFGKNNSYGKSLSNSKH
Chain of UniProt Q05655 (whole entry, looked up): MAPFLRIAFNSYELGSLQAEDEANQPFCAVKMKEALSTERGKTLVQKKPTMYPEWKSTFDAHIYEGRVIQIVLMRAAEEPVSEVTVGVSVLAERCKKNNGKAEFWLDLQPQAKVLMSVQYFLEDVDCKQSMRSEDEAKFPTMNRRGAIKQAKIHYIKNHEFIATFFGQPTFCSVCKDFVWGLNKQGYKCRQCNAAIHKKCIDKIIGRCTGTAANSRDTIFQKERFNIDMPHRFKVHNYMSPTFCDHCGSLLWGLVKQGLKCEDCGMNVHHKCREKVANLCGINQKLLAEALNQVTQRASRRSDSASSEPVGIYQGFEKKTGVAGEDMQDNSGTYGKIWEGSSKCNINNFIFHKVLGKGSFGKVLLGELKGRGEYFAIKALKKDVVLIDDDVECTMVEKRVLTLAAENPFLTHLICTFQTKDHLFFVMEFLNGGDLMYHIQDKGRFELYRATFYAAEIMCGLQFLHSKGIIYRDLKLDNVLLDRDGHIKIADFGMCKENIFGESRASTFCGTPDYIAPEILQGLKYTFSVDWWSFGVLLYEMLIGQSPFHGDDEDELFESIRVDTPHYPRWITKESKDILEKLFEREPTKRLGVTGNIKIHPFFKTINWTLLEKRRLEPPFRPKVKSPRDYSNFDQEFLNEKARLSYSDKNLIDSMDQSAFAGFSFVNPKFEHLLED
Chain of UniProt P00519 (whole entry, unmodified, looked up): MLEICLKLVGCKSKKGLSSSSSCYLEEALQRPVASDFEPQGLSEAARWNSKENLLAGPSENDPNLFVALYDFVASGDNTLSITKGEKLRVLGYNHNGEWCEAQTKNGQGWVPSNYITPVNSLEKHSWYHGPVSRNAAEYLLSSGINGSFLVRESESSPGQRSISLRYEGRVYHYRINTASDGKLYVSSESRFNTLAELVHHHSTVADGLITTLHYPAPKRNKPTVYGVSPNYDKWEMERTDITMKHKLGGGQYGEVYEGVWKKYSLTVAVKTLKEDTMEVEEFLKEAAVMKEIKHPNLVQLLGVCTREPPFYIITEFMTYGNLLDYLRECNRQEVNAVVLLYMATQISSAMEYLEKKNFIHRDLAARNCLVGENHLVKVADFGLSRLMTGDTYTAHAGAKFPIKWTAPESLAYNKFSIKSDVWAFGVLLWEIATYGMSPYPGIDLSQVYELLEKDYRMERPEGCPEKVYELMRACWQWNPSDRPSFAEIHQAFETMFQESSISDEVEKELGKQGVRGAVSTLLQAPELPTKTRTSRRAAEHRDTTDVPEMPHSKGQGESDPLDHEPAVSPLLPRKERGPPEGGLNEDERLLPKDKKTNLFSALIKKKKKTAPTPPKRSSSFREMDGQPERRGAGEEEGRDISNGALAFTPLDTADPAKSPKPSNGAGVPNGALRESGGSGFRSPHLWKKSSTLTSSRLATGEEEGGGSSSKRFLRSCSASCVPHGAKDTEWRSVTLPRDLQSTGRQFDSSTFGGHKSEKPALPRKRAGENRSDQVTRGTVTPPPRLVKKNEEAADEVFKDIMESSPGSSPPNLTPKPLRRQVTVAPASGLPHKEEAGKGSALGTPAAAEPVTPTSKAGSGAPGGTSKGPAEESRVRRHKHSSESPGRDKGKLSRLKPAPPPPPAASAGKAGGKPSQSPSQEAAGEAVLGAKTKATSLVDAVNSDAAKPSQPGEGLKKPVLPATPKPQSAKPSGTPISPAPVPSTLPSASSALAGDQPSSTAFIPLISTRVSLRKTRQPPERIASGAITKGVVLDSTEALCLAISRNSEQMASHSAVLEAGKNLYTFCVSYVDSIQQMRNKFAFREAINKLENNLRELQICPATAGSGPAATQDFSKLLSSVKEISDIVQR
Chain of UniProt Q86YV6 (whole entry, looked up): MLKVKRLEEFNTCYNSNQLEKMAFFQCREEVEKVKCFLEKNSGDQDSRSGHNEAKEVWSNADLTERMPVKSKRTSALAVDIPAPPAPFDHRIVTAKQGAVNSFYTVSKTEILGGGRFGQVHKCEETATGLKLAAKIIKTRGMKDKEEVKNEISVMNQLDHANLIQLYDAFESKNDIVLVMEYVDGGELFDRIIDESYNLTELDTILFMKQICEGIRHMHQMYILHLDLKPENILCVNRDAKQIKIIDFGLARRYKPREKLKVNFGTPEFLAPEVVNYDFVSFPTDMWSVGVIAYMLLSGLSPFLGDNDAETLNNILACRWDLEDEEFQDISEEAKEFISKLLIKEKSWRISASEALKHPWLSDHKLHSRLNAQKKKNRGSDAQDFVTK

Sample 1
SMILES: O=C1Nc2ccccc2/C1=C\c1c(Cl)[nH]c2ccccc12
Read-out: enzyme activity
Action: inhibitor
Tested at: 0.5 µM
Reference: control
target	remaining activity [%]
Tyrosine-protein kinase BTK (BTK, Homo sapiens, UniProt Q06187)	94.6
Serine/threonine-protein kinase Nek4 (NEK4, Homo sapiens, UniProt P51957)	97.7
Serine/threonine-protein kinase Chk1 (CHEK1, Homo sapiens, UniProt O14757)	93.7
Casein kinase II subunit alpha (CSNK2A1, Homo sapiens, UniProt P68400)	89.4
Serine/threonine-protein kinase WNK2 (WNK2, Homo sapiens, UniProt Q9Y3S1)	93.4
Mitogen-activated protein kinase kinase kinase 10 (MAP3K10, Homo sapiens, UniProt Q02779)	94.7
Ephrin type-A receptor 5 (EPHA5, Homo sapiens, UniProt P54756)	83.4
Dual specificity mitogen-activated protein kinase kinase 6 (MAP2K6, Homo sapiens, UniProt P52564)	93.4
Casein kinase I isoform alpha (CSNK1A1, Homo sapiens, UniProt P48729)	102
RAC-gamma serine/threonine-protein kinase (AKT3, Homo sapiens, UniProt Q9Y243)	93.6
Mitogen-activated protein kinase kinase kinase kinase 2 (MAP4K2, Homo sapiens, UniProt Q12851)	97.9
Mitogen-activated protein kinase 13 (MAPK13, Homo sapiens, UniProt O15264)	98.9
Cyclin-dependent kinase 9, with cyclin T1 (CDK9, Homo sapiens, UniProt P50750)	98.4
Mast/stem cell growth factor receptor Kit (KIT, Homo sapiens, UniProt P10721)	90.2
Protein kinase C iota type (PRKCI, Homo sapiens, UniProt P41743)	99.2
Mitogen-activated protein kinase 12 (MAPK12, Homo sapiens, UniProt P53778)	93
Interleukin-1 receptor-associated kinase 4 (IRAK4, Homo sapiens, UniProt Q9NWZ3)	102
MAP kinase-interacting serine/threonine-protein kinase 2 (MKNK2, Homo sapiens, UniProt Q9HBH9)	93.5
Tyrosine-protein kinase Lyn (LYN, Homo sapiens, UniProt P07948)	99.7
Leucine-rich repeat serine/threonine-protein kinase 2 (LRRK2, Homo sapiens, UniProt Q5S007)	102
Serine/threonine-protein kinase PLK2 (PLK2, Homo sapiens, UniProt Q9NYY3)	98.2
Protein kinase C delta type (PRKCD, Homo sapiens, UniProt Q05655)	88.4
cGMP-dependent protein kinase 1 (PRKG1, Homo sapiens, UniProt Q13976)	92.5

Sample 2
Compound: CCCCN(CCCC)C(=O)CN1C[C@@H](c2cc(OC)c3c(c2)OCO3)[C@H](C(=O)O)[C@H]1CC(C)(C)CCC
Read-out: cell-free assay
Technique: competition with immobilised ligand
Tested at: 1 µM
target	remaining binding [%]
Serine/threonine-protein kinase B-raf (BRAF, Homo sapiens, UniProt P15056, V600E)	100
Casein kinase I isoform gamma-2 (CSNK1G2, Homo sapiens, UniProt P78368)	96.3
Phosphatidylinositol 4,5-bisphosphate 3-kinase catalytic subunit delta isoform (PIK3CD, Homo sapiens, UniProt O00329)	87
Tyrosine-protein kinase ABL1, non-phosphorylated (ABL1, Homo sapiens, UniProt P00519, F317L)	100
Receptor tyrosine-protein kinase erbB-3 (ERBB3, Homo sapiens, UniProt P21860)	100
Rho-associated protein kinase 2 (ROCK2, Homo sapiens, UniProt O75116)	100
Cyclin-dependent kinase 14 (CDK14, Homo sapiens, UniProt O94921)	100
Insulin receptor (INSR, Homo sapiens, UniProt P06213)	89
Myosin light chain kinase, smooth muscle (MYLK, Homo sapiens, UniProt Q15746)	84.4
Serine/threonine-protein kinase NLK (NLK, Homo sapiens, UniProt Q9UBE8)	100
Phosphatidylinositol 3-kinase catalytic subunit type 3 (PIK3C3, Homo sapiens, UniProt Q8NEB9)	98.7
cGMP-dependent protein kinase 1 (PRKG1, Homo sapiens, UniProt Q13976)	100
5'-AMP-activated protein kinase catalytic subunit alpha-2 (PRKAA2, Homo sapiens, UniProt P54646)	92.6
Calcium/calmodulin-dependent protein kinase type II subunit gamma (CAMK2G, Homo sapiens, UniProt Q13555)	94.3
Fibroblast growth factor receptor 4 (FGFR4, Homo sapiens, UniProt P22455)	95.8
Myosin light chain kinase family member 4 (MYLK4, Homo sapiens, UniProt Q86YV6)	100
Dual specificity mitogen-activated protein kinase kinase 1 (MAP2K1, Homo sapiens, UniProt Q02750)	100
Phosphatidylinositol 4-phosphate 3-kinase C2 domain-containing subunit beta (PIK3C2B, Homo sapiens, UniProt O00750)	73.6
Dual specificity protein kinase CLK3 (CLK3, Homo sapiens, UniProt P49761)	100
Calcium/calmodulin-dependent protein kinase type 1G (CAMK1G, Homo sapiens, UniProt Q96NX5)	100
Phosphatidylinositol 4,5-bisphosphate 3-kinase catalytic subunit beta isoform (PIK3CB, Homo sapiens, UniProt P42338)	100
Ephrin type-A receptor 7 (EPHA7, Homo sapiens, UniProt Q15375)	100
Tyrosine-protein kinase JAK1, JH2 (JAK1, Homo sapiens, UniProt P23458)	100

Sample 3
Target: Bromodomain-containing protein 4, BD1 (BRD4, Homo sapiens, UniProt O60885)
Read-out: acetyl-histone H4 peptide binding
Technique: AlphaScreen displacement
Tested at: 50 µM
Compound	inhibition [%]
COc1cc(/C=C/C(=O)CC(=O)/C=C/c2ccc(O)c(OC)c2)ccc1O.COc1cc(C=CC(=O)CC(=O)C=Cc2ccc(O)c(OC)c2)ccc1O	75.2
CCOc1ccc2nc(NC(=O)CCC(=O)O)sc2c1	3.2
O=[N+]([O-])c1ccc(-c2cc(C(F)(F)F)[nH]n2)cc1	23.2
Cc1cc2ncc(-c3ccccc3)nc2cc1C	-17.1
O=C(CSc1ccc2nnc(-c3cccc(F)c3)n2n1)Nc1cccc(F)c1	7.9
CCCNC(=O)Nc1ccc(Oc2ncnc3cc(OC)c(OC)cc23)cc1Cl	9.75
CC(c1ccccc1)n1c(=O)[nH]c2ncc(-c3cccnc3)nc21 (stereo not shown)	17.7
Cn1cc(C=C2SC(=O)NC2=O)c2ccccc21	3.2
Cn1c(C(C#N)=Cc2ccncc2)nc2ccccc21	2.6
O=C(NCc1ccco1)C(=O)c1cn(CC(=O)N2CCOCC2)c2ccccc12	25
CCc1c(O)[nH]c2nc3ccccc3n2c1=O	11.1
CC(C)OC(=O)CNC(=O)c1cc2c(=O)n3ccccc3nc2n1C	6.15
CCOC(=O)c1cccc(Nc2nc(N)nc3[nH]cnc23)c1	16.6
CC(C)n1cnc2c(Nc3cccc(Cl)c3)nc(NCCO)nc21	43.2
COc1cc2c(cc1OC)-c1[nH]nc(Nc3cccc(F)c3)c1C2	64.2

Sample 4
SMILES: C=CCc1ccc(O)c(-c2ccc(O)c(CC=C)c2)c1
ANO1 del476-501/F628A: Anoctamin-1 (ANO1, Homo sapiens, UniProt Q5XXA6, del476-501/F628A)
Chain of UniProt Q5XXA6 (whole entry, unmodified, looked up): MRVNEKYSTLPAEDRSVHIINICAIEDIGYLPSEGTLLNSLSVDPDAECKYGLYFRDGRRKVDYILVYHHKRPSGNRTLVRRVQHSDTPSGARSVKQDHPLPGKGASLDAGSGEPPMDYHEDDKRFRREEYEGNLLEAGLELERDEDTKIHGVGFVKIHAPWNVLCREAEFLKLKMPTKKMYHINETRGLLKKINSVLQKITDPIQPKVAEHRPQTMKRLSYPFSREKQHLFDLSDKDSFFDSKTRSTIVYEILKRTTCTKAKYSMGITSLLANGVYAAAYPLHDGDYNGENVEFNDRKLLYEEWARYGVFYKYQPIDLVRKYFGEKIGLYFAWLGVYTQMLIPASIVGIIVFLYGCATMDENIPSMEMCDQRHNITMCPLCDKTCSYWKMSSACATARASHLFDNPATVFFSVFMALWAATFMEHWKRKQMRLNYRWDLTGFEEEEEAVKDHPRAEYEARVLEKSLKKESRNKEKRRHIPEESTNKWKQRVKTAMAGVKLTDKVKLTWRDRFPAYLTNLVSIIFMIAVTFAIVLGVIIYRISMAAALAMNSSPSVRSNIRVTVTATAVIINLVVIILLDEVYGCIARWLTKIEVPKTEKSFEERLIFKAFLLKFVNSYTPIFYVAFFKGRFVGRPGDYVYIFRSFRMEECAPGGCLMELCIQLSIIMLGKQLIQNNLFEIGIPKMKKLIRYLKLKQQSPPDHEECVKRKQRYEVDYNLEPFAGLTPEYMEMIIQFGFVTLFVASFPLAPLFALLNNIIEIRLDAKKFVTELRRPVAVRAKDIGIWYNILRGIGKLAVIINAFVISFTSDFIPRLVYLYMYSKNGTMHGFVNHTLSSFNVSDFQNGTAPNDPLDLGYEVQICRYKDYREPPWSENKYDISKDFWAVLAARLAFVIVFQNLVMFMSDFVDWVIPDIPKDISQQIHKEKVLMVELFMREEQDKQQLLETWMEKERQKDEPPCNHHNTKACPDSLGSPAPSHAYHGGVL
ANO1 del476-501/E649A: Anoctamin-1 (ANO1, Homo sapiens, UniProt Q5XXA6, del476-501/E649A)
ANO1 del476-501: Anoctamin-1 (ANO1, Homo sapiens, UniProt Q5XXA6, del476-501)
target	test	setting	scale	normalized current
ANO1 del476-501/F628A	chloride current, whole-cell voltage clamp	10 µM, I-V at -40 mV, added: 4 µM Ca2+		-0.24
ANO1 del476-501/E649A	ion current, inside-out patch clamp	10 µM, E623A mutant at -40 mV		-0.282
ANO1 del476-501/F628A	chloride current, inhibitor, whole-cell voltage clamp	30 µM, F602A mutant		0.53
human TMEM16A K603A/E623A	chloride current, inhibitor, inside-out patch clamp	10 µM, at -100 mV		-0.4
Anoctamin-1 (ANO1, Homo sapiens, UniProt Q5XXA6)	chloride current, inside-out patch clamp	10 µM, membrane voltage 120 mV		1
Anoctamin-1 (ANO1, Homo sapiens, UniProt Q5XXA6, del476-501/F807A)	chloride current, inhibitor, whole-cell voltage clamp	30 µM	reference: untreated	0.343
ANO1 del476-501	chloride current, whole-cell voltage clamp	1 µM, wild type, concentration-response at 100 mV, added: 4 µM Ca2+		0.921
Anoctamin-1 (ANO1, Homo sapiens, UniProt Q5XXA6, del476-501/E659A)	chloride current, inside-out patch clamp	10 µM, membrane voltage 80 mV		0.648
ANO1 del476-501	chloride current, whole-cell voltage clamp	1 µM, wild type, I-V at 80 mV, added: 4 µM Ca2+		0.723
ANO1 del476-501/F628A	chloride current, whole-cell voltage clamp	1 µM, concentration-response at -20 mV, added: 4 µM Ca2+		-0.19
ANO1 del476-501/F628A	chloride current, whole-cell voltage clamp	30 µM, I-V at 100 mV, added: 4 µM Ca2+		0.515
ANO1 del476-501/E649A	ion current, inside-out patch clamp	10 µM, E623A mutant at 80 mV		0.63
ANO1 del476-501	chloride current, whole-cell voltage clamp	1 µM, wild type, concentration-response at 80 mV, added: 4 µM Ca2+		0.684
ANO1 del476-501/F628A	chloride current, whole-cell voltage clamp	100 µM, concentration-response at -80 mV, added: 4 µM Ca2+		-0.111
ANO1 del476-501/F628A	chloride current, whole-cell voltage clamp	10 µM, concentration-response at 80 mV, added: 4 µM Ca2+		0.61
ANO1 del476-501/F628A	chloride current, whole-cell voltage clamp	30 µM, concentration-response at 20 mV, added: 4 µM Ca2+		0.1
ANO1 del476-501/F628A	chloride current, whole-cell voltage clamp	1 µM, concentration-response at -80 mV, added: 4 µM Ca2+		-0.694
Anoctamin-1 (ANO1, Homo sapiens, UniProt Q5XXA6, del476-501/R541A)	chloride current, inside-out patch clamp	10 µM, membrane voltage 0 mV		-0.0057
ANO1 del476-501	chloride current, whole-cell voltage clamp	3 µM, wild type, I-V at 60 mV, added: 4 µM Ca2+		0.477
ANO1 del476-501	chloride current, whole-cell voltage clamp	10 µM, wild type, concentration-response at 40 mV, added: 4 µM Ca2+		0.108
ANO1 del476-501/F628A	chloride current, whole-cell voltage clamp	10 µM, I-V at 60 mV, added: 4 µM Ca2+		0.389

Excerpt of the above (sample 2):
target	remaining binding [%]
Rho-associated protein kinase 2 (ROCK2, Homo sapiens, UniProt O75116)	100
Tyrosine-protein kinase ABL1, non-phosphorylated (ABL1, Homo sapiens, UniProt P00519, F317L)	100
Casein kinase I isoform gamma-2 (CSNK1G2, Homo sapiens, UniProt P78368)	96.3
Myosin light chain kinase family member 4 (MYLK4, Homo sapiens, UniProt Q86YV6)	100
Fibroblast growth factor receptor 4 (FGFR4, Homo sapiens, UniProt P22455)	95.8
Serine/threonine-protein kinase B-raf (BRAF, Homo sapiens, UniProt P15056, V600E)	100
Dual specificity mitogen-activated protein kinase kinase 1 (MAP2K1, Homo sapiens, UniProt Q02750)	100
